Published values pooled from the literature.
Lines come from different studies, so protocols differ.
Chain of UniProt Q15569 (whole entry, looked up): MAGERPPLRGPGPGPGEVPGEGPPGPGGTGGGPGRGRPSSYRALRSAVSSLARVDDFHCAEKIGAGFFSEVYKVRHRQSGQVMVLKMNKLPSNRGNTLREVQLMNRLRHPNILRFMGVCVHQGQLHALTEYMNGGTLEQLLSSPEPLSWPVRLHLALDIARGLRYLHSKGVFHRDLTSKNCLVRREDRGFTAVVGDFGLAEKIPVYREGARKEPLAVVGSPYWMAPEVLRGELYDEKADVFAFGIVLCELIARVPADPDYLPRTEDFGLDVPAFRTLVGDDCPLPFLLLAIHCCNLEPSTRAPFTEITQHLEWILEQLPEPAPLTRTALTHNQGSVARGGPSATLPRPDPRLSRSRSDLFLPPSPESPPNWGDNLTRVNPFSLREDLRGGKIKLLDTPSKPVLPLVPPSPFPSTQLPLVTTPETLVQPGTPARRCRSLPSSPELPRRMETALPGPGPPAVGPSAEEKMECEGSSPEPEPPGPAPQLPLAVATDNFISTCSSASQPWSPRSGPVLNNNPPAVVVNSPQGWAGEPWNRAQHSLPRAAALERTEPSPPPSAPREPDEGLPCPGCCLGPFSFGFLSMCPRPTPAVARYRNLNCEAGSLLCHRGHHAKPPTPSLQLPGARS
Chain of UniProt Q8IZL9 (whole entry, looked up): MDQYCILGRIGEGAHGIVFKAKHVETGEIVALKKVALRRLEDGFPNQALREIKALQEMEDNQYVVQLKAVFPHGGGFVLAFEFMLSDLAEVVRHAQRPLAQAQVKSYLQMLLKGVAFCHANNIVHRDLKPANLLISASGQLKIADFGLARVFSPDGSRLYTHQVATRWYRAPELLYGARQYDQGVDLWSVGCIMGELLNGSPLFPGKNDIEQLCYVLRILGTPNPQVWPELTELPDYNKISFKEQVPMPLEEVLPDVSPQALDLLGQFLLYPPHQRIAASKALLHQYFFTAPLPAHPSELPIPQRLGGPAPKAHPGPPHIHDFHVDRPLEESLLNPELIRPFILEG
Chain of UniProt Q5S007 (whole entry, looked up): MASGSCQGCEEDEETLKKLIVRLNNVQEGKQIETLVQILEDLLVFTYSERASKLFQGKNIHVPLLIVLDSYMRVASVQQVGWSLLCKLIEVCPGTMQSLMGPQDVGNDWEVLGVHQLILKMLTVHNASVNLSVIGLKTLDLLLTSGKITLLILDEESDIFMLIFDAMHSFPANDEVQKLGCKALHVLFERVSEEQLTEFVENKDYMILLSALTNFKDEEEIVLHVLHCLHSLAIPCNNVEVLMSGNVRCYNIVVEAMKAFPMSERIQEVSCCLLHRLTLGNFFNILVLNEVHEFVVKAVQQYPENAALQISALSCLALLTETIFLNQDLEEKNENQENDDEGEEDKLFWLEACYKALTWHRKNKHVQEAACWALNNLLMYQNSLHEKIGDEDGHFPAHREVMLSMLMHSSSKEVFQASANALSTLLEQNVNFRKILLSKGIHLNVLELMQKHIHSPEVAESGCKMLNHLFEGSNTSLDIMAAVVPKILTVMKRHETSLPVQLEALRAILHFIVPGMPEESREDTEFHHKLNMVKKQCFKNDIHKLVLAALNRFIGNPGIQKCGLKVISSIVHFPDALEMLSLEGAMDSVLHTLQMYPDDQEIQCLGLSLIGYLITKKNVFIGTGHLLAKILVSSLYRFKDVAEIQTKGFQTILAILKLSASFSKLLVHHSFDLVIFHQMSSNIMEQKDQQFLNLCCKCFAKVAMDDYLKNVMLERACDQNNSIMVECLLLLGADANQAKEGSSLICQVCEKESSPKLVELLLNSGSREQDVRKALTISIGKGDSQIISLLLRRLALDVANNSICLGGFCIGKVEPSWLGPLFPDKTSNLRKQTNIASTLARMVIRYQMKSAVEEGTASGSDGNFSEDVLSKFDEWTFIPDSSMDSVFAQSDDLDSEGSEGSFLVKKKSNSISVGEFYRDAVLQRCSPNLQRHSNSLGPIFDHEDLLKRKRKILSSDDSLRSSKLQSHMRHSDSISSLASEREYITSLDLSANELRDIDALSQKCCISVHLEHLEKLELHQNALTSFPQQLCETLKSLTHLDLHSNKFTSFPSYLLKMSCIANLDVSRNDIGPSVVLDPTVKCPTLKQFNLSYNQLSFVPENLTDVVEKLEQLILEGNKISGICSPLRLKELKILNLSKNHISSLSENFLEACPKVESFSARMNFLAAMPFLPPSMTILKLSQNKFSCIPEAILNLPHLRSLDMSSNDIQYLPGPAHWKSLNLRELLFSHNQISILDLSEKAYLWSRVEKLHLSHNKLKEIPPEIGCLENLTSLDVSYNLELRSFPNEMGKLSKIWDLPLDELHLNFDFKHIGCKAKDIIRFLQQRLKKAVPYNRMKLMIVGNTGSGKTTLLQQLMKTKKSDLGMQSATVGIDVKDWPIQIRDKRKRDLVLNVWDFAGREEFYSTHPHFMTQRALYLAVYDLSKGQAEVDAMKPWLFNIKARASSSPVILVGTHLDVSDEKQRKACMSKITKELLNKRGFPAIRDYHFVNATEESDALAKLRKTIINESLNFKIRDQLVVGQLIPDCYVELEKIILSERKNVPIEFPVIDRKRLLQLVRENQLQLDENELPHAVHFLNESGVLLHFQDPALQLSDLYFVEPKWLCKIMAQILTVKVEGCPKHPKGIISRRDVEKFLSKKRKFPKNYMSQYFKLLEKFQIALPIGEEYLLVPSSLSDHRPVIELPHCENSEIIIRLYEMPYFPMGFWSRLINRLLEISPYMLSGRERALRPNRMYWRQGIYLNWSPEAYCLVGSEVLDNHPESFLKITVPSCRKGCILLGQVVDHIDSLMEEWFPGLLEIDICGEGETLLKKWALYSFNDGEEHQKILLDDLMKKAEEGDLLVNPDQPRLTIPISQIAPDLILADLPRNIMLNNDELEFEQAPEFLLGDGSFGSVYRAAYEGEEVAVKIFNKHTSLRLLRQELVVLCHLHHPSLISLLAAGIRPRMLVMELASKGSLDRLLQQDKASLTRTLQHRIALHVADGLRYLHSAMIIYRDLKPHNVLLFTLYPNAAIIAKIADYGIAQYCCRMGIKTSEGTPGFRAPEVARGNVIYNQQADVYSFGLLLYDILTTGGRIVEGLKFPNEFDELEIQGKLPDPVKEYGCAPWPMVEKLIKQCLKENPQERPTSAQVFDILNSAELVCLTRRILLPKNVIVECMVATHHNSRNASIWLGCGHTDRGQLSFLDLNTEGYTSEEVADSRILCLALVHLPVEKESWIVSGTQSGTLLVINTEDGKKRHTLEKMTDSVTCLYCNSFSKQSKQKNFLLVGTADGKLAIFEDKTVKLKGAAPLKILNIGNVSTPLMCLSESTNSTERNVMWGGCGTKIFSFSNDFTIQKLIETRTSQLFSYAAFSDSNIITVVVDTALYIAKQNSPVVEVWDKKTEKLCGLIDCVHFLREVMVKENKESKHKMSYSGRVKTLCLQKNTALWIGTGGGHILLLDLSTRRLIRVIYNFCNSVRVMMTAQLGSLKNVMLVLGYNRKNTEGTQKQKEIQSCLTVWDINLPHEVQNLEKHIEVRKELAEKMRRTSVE

Cc1[nH]c(C)c(S(=O)(=O)Nc2ccc(C(F)(F)F)c(Cl)c2)c1C(=O)N1CCC(F)(F)C1
Cmax (male CD-1 mouse, plasma; intraperitoneal, 40 mg/kg): 13700 ng/g

CCc1cc(-c2noc(-c3cc(OC)nc(C4CCCC4)c3)n2)cc(C)c1OC[C@@H](O)CO
concentration (Wistar rat, plasma; oral, 1 mg/kg, 48 h, single dose): 5.5 ng/mL

Cc1cc(NC(=O)c2cccc(NC(=O)/C=C/CN(C)C)c2)ccc1Nc1nccc(-c2cccnc2)n1
scaled CLint (metabolic stability; male Wistar rat, hepatocytes; 1 µM): 18.5 mL/min/kg

O=C(c1ccc(F)cc1)C1CCN(CCn2c(=O)[nH]c3ccccc3c2=O)CC1
compound remaining (metabolic stability, mass spectrometry; mouse, liver microsomes; 1 h): 12.5%

N=C(N)c1ccc(OCCCCCCCCCOc2ccc(C(=N)N)cc2)cc1
haemolysis (haemolysis; sheep; 200 µg/mL, 1 h): 9.7%

C=CCn1c(=O)c2cnc(Nc3ccc(N4CCN(C)CC4)cc3)nc2n1-c1ccc2c(n1)[C@@](O)(CC)CC2
fraction unbound (human, plasma): 0.344

Cn1nc2c(=O)n(C3CC3)ccc2c1[C@](O)(c1cnc(C(F)(F)F)c(Cl)c1)C1CC1
hepatocyte CLint (metabolic stability; male Sprague-Dawley rat, hepatocytes; 0.5 µM, pH 7.4): < 1 µL/min/10⁶ cells

N=C(N)c1ccccc1OCc1cccc(COc2ccccc2C(=N)N)c1
haemolysis (haemolysis; sheep; 200 µg/mL, 20 h): 0%

N#C[C@@]12C[C@@H]1[C@@H](n1cnc3c(N[C@@H](C4CCC4)C4CC4)nc(I)nc31)[C@H](O)[C@@H]2O
Cmax (male Wistar rat, plasma; oral, 10 mg/kg): 95.6 ng/mL

COc1cc(-c2cncc3c2CN(C)Cc2cc(N4CCNCC4)ccc2-3)cc(OC)c1OC
remaining activity (Leucine-rich repeat serine/threonine-protein kinase 2 (LRRK2, Homo sapiens, UniProt Q5S007); enzyme activity, inhibitor; 1 µM): 103%

Cc1cccnc1CNc1nc(-c2ccccn2)nc2ccccc12
microsomal CLint (metabolic stability; mouse, liver microsomes): 97 µL/min/mg

NCc1cc2c(cc1F)C(=O)N(C1CCC(=O)NC1=O)C2 (stereo not shown)
concentration (male CD-1 mouse, plasma; intravenous, 1 mg/kg, 1 h): 22.2 ng/mL

C=CC(=O)N1CCC(COCC(=O)N2CCN(c3nc(-c4cnc(N)nc4C(F)F)nc(N4CCOC[C@@H]4C)n3)CC2)CC1
remaining binding (Dual specificity testis-specific protein kinase 1 (TESK1, Homo sapiens, UniProt Q15569); binding, competition with immobilised ligand; 1 µM): 100%

COc1nc(-c2cc(C)c(N[C@@H](C)c3cc(F)cc(F)c3)nn2)ccc1-n1cnc(C)c1
bioavailability (male Sprague-Dawley rat, plasma; oral, 5 mg/kg, single dose): 79.4%

N=C(N)c1ccccc1OCc1ccc(COc2ccccc2C(=N)N)cc1
haemolysis (haemolysis; sheep; 200 µg/mL, 1 h): 0%

COc1cccc(-c2n[nH]c(SCc3ccccn3)n2)c1OC
concentration (male Sprague-Dawley rat, plasma; oral, 100 mg/kg, 1 h, single dose): 52100 ng/mL

COc1ccc([C@@H](O)c2cc(-c3ncnc4cc(N5CCOCC5)ccc34)c(F)cc2Cl)nn1
AUC(0-t) (human, plasma; oral, 200 mg, multiple doses, twice daily, patients): 14200 ng·h/mL

c1ccc(-c2nc(N3CCCC(c4ccccn4)C3)c3ccccc3n2)nc1 (stereo not shown)
Papp (PAMPA; 10 µM, 3 h, pH 7.4): 34.6 ×10⁻⁶ cm/s

O=c1c2ccc(OC3CCNCC3)cc2[nH]c2cc(F)cc(Cl)c12
microsomal CLint (metabolic stability; mouse, liver microsomes; 1 µM, pH 7.4): 18.8 µL/min/mg

CCONC(=O)N1CCC[C@H](C(=O)N[C@@H](C)c2nc(-c3ccc(C#N)cc3)cs2)C1
microsomal CLint (metabolic stability; human, liver microsomes; 0.5 µM): 20 µL/min/mg

CC[C@@](N)(c1cnc(C(F)(F)F)c(Cl)c1)c1c2ncn(C3CC3)c(=O)c2nn1C
hepatocyte CLint (metabolic stability; male Sprague-Dawley rat, hepatocytes; 0.5 µM, pH 7.4): < 0.5 µL/min/10⁶ cells

COc1cc(OC)c2nccc(N3CCc4c(cc(Cn5ccnc5)cc4-c4cn(C)nc4C(F)(F)F)C3=O)c2c1
MRT(0-inf) (male CD-1 mouse, plasma; oral, 50 mg/kg): 2 h

O=C(NCc1nc(-c2ccc(C(F)(F)F)cc2)cs1)[C@H]1CCCN(C(=O)COCCN2CCCCC2)C1
microsomal CLint (metabolic stability; male Sprague-Dawley rat, liver microsomes; 0.5 µM): 83 µL/min/mg

COc1ccc2c(c1)CN(C(=O)CCN1CCC(Cc3ccccc3)CC1)CC[S@@+]2[O-]
AUC(0-inf) (male human, plasma; intravenous, 0.4 mg/kg, healthy volunteers): 2470 ng·h/mL

CCOC(=O)[C@@]12C[C@@H]1[C@@H](n1ccc3c(NC)nc(C#Cc4ccc(Cl)s4)nc31)[C@H](O)[C@@H]2O
concentration (male Sprague-Dawley rat, plasma; oral, 10 mg/kg, 1 h): 124 ng/mL

CCOCC(=O)N1CCC[C@H](C(=O)NCc2nc(-c3ccc(C#N)nc3)cs2)C1
scaled CLint (metabolic stability; human, liver microsomes; 0.5 µM): 12 mL/min/kg

O=C1CCC(N2Cc3cc(Nc4noc5ccccc45)ccc3C2=O)C(=O)N1 (stereo not shown)
clearance (female CD-1 mouse, plasma; intravenous, 3 mg/kg): 59 mL/min/kg

Cc1noc(C)c1Cn1cc(N2C(=O)CN(Cc3cccc(O)c3)C2=O)cn1
concentration (male Sprague-Dawley rat, plasma; oral, 10 mg/kg, 15 min): 11.3 ng/mL

CCn1ncc2c([C@](O)(c3ccc(C(F)(F)F)c(Cl)c3)C3CC3)n(C)nc2c1=O
hepatocyte CLint (metabolic stability; human, hepatocytes; 0.5 µM, pH 7.4): 6.6 µL/min/10⁶ cells

N[C@@H](C[18F])C(=O)O
tracer uptake (nude mouse, bone; intravenous, 110 min, tumour-bearing): 17.9 %ID/g

O=C(Nc1ccc(CN2CCOCC2)c(C(F)(F)F)c1)c1ccc(C#Cc2cccc3cnccc23)cn1
Papp B→A (Caco-2): 0.699 ×10⁻⁶ cm/s

CCOC(=O)C1=C(CN2CCC[C@@H]2C(=O)Nc2ccc(B(O)O)cc2)NC(c2nccs2)=N[C@H]1c1ccc(F)cc1Br
MRT(0-t) (CD-1 mouse, plasma; intravenous, 2 mg/kg): 0.54 h

CNc1ncc2c(/C=C/C(=O)N3CCC(OC)CC3)nn(Cc3cccc(C(F)(F)F)c3)c2n1
remaining activity (Cyclin-dependent kinase 20, with cyclin T1 (CDK20, Homo sapiens, UniProt Q8IZL9); enzyme activity, inhibitor, radiometric; 1 µM): 104%

O=C1CC[C@H](N2Cc3cc(N4CCN(CC5CCN(c6ccc([C@@H]7c8ccc(O)cc8CC[C@@H]7c7ccccc7)cc6)CC5)CC4)ccc3C2=O)C(=O)N1
MRT(0-inf) (male Sprague-Dawley rat, plasma; oral, 20 mg/kg, fed): 9.12 h

c1ccc(-c2nc(N3CCCCCC3)c3ccccc3n2)nc1
Papp (PAMPA; 10 µM, 3 h, pH 7.4): 35.7 ×10⁻⁶ cm/s

CCN1CCN(Cc2ccc(NC(=O)c3ccc(C)c(NC(=O)c4cncc(-c5cccs5)c4)c3)cc2C(F)(F)F)CC1
AUC(0-inf) (mouse, plasma; intraperitoneal, 30 mg/kg, single dose): 3180 ng·h/mL

Fc1ccccc1-c1nc(N2CCC(c3ccccn3)C2)c2ccccc2n1 (stereo not shown)
microsomal CLint (metabolic stability; mouse, liver microsomes): 688 µL/min/mg

O=C(COc1ccc(Cl)cc1)NC12CC(c3nnc([C@H]4C[C@@H](OC(F)(F)F)C4)o3)(C1)C2
half-life (human, plasma; oral, 15 mg, single dose, fasted, healthy volunteers): 31.7 h

COc1ccccc1-c1nc(N2CCC(c3ccccn3)C2)c2ccccc2n1 (stereo not shown)
Papp (PAMPA; 10 µM, 3 h, pH 7.4): 23.9 ×10⁻⁶ cm/s

C[C@H](C(=O)NCc1ccccc1)N1C(=O)CCC1=O
TD50 (rotarod; male C57BL/6 mouse; intraperitoneal): 168 mg/kg

CCn1ccc2c([C@](O)(c3ccc(C(F)(F)F)nc3)C3CC3)n(C)nc2c1=O
hepatocyte CLint (metabolic stability; male Sprague-Dawley rat, hepatocytes; 0.5 µM, pH 7.4): 6.5 µL/min/10⁶ cells

N=C(N)c1cccc(OCc2cccc(COc3cccc(C(=N)N)c3)c2)c1
haemolysis (haemolysis; sheep; 200 µg/mL, 1 h): 0.2%

CC(C)(O)c1ccccc1CC[C@@H](SCC1(CC(=O)O)CC1)c1cccc(/C=C/c2ccc3ccc(Cl)cc3n2)c1
hepatocyte CLint (metabolic stability; human, hepatocytes; 0.5 µM, pH 7.4): 11.4 µL/min/10⁶ cells

CC[C@H](C)[C@@H]1NC(=O)[C@@](C)(NC(=O)[C@H](CCCNC(=N)N)NC(=O)[C@H](CC(C)C)NC(=O)[C@@H](NC(=O)[C@H](CCC(N)=O)NC(=O)[C@H](CC(C)C)NC(C)=O)[C@@H](C)O)CCCC=CCCC[C@@](C)(C(=O)N[C@@H](CC(C)C)C(=O)N[C@@H](Cc2ccc3ccccc3c2)C(N)=O)NC(=O)[C@H](CCCNC(=N)N)NC(=O)[C@H](CCC(N)=O)NC1=O
AUC (male BALB/c mouse, plasma; intravenous, 15 mg/kg): 160 µM·h

Cn1nc2c(=O)n(C3CC3)ccc2c1[C@](O)(c1cnc(C(F)(F)F)c(Cl)c1)C(F)(F)F
Papp B→A (Caco-2): 75.3 ×10⁻⁶ cm/s

Cn1nccc1-c1nc(N2CCC(c3ccccn3)C2)c2ccccc2n1 (stereo not shown)
microsomal CLint (metabolic stability; mouse, liver microsomes): 365 µL/min/mg

Repeated from above:
C=CC(=O)N1CCC(COCC(=O)N2CCN(c3nc(-c4cnc(N)nc4C(F)F)nc(N4CCOC[C@@H]4C)n3)CC2)CC1
remaining binding (Dual specificity testis-specific protein kinase 1 (TESK1, Homo sapiens, UniProt Q15569); binding, competition with immobilised ligand; 1 µM): 100%

COc1nc(-c2cc(C)c(N[C@@H](C)c3cc(F)cc(F)c3)nn2)ccc1-n1cnc(C)c1
bioavailability (male Sprague-Dawley rat, plasma; oral, 5 mg/kg, single dose): 79.4%

N=C(N)c1ccccc1OCc1ccc(COc2ccccc2C(=N)N)cc1
haemolysis (haemolysis; sheep; 200 µg/mL, 1 h): 0%

COc1cccc(-c2n[nH]c(SCc3ccccn3)n2)c1OC
concentration (male Sprague-Dawley rat, plasma; oral, 100 mg/kg, 1 h, single dose): 52100 ng/mL

COc1ccc([C@@H](O)c2cc(-c3ncnc4cc(N5CCOCC5)ccc34)c(F)cc2Cl)nn1
AUC(0-t) (human, plasma; oral, 200 mg, multiple doses, twice daily, patients): 14200 ng·h/mL

c1ccc(-c2nc(N3CCCC(c4ccccn4)C3)c3ccccc3n2)nc1 (stereo not shown)
Papp (PAMPA; 10 µM, 3 h, pH 7.4): 34.6 ×10⁻⁶ cm/s

O=c1c2ccc(OC3CCNCC3)cc2[nH]c2cc(F)cc(Cl)c12
microsomal CLint (metabolic stability; mouse, liver microsomes; 1 µM, pH 7.4): 18.8 µL/min/mg
